Measured values of several laboratories.
Each numbered part is a random draw from the data of one study; scales do not carry over between parts. Values joined by “and” are separate records of one study, mostly repeats; a detail may differ.
Sequence of UniProt Q02750 (whole entry, looked up): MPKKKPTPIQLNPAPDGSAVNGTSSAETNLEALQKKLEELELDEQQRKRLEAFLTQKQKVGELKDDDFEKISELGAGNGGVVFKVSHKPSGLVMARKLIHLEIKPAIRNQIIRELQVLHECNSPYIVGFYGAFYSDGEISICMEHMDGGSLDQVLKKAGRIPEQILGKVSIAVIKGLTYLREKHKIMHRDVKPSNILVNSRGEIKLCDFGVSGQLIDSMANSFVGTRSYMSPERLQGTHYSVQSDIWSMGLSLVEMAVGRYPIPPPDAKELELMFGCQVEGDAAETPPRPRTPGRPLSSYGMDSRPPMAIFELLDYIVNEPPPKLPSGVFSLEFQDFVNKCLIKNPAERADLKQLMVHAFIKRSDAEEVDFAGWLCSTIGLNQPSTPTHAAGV
Sequence of UniProt P42681 (whole entry, looked up): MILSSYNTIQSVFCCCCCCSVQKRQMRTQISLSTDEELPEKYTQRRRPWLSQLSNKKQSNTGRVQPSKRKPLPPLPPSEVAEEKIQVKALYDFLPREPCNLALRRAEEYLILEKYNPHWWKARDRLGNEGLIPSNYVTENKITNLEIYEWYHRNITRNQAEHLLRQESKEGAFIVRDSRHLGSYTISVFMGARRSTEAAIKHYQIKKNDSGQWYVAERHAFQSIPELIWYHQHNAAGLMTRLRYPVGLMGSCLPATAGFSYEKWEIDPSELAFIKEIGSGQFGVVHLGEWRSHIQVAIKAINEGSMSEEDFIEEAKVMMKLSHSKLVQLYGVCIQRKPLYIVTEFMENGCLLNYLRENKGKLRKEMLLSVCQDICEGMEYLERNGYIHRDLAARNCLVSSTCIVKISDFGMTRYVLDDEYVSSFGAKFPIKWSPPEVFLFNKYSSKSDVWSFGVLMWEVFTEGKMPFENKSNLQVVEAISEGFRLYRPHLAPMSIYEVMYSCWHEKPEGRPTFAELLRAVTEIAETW
Sequence of UniProt Q16539 (whole entry, looked up): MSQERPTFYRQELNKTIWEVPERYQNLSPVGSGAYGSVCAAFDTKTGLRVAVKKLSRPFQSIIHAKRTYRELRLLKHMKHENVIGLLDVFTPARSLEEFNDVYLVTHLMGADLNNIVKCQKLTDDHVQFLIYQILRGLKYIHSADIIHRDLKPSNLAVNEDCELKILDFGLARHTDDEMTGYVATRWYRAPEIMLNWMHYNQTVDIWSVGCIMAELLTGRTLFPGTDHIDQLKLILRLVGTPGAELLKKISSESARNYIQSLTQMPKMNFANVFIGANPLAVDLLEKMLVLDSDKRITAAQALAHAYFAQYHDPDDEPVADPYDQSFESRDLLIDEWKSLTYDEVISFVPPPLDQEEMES
Sequence of UniProt Q96L34 (whole entry, looked up): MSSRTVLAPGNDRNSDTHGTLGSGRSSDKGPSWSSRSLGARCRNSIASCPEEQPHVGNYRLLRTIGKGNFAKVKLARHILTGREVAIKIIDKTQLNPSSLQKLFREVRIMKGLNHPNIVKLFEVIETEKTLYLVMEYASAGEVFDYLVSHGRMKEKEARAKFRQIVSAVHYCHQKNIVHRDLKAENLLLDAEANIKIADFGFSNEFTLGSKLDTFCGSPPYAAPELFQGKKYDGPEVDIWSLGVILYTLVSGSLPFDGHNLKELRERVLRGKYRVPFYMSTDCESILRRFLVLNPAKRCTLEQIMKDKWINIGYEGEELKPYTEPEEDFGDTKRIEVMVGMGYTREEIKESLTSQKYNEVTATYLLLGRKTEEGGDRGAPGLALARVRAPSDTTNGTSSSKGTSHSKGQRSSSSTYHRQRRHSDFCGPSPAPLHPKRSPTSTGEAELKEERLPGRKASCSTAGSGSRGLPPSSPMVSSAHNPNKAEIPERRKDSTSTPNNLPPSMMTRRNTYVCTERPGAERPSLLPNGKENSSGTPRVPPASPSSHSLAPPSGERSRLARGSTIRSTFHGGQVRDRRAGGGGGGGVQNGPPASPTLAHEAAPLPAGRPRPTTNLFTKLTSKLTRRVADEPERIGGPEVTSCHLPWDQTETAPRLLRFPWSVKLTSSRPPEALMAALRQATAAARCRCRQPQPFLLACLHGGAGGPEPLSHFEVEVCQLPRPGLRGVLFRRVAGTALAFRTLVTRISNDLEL
Sequence of UniProt Q15759 (whole entry, looked up): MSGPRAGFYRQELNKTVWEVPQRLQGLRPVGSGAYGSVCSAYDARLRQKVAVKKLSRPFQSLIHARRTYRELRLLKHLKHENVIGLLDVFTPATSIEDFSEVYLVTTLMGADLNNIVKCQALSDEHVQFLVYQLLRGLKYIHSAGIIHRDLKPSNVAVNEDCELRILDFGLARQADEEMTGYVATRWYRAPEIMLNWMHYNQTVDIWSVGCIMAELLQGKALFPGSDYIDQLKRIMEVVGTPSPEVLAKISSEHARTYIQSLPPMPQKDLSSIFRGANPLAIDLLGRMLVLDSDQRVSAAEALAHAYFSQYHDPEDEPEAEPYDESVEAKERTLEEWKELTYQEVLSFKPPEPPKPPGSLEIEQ
Sequence of UniProt Q16832 (whole entry, looked up): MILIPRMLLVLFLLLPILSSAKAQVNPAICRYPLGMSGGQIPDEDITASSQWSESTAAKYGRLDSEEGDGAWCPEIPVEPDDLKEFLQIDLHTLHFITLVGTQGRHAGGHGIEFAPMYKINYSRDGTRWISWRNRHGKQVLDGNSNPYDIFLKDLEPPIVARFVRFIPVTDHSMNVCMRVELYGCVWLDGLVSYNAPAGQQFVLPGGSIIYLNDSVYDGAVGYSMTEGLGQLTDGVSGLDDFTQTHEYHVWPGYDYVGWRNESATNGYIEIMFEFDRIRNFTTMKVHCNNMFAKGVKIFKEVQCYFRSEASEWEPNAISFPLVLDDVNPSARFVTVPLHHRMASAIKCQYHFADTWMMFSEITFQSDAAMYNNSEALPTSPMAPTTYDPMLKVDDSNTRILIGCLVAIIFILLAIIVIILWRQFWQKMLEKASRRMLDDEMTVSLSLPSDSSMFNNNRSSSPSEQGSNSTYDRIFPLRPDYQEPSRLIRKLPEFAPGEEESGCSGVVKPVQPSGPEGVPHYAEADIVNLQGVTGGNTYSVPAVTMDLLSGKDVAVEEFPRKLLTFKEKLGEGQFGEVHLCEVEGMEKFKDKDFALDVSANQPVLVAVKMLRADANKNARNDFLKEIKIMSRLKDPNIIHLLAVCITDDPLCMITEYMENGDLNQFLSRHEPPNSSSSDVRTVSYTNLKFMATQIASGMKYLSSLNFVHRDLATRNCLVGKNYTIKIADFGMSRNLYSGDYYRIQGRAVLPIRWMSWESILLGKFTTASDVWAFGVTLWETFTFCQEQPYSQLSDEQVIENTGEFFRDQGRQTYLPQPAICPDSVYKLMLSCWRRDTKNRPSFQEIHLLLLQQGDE
Sequence of UniProt Q9HAZ1 (whole entry, looked up): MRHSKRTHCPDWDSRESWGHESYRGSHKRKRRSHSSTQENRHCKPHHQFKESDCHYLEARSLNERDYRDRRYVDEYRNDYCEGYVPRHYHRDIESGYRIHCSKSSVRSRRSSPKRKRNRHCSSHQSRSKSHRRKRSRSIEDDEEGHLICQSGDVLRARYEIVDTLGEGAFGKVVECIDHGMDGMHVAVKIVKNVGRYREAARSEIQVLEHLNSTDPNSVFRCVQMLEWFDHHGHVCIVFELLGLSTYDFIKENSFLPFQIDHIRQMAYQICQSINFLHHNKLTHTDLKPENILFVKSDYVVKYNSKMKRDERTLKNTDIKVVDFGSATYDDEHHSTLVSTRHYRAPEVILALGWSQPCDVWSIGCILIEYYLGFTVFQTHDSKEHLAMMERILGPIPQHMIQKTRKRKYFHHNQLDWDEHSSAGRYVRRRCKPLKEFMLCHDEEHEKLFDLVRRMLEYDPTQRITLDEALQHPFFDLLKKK
Sequence of UniProt P32298 (whole entry, looked up): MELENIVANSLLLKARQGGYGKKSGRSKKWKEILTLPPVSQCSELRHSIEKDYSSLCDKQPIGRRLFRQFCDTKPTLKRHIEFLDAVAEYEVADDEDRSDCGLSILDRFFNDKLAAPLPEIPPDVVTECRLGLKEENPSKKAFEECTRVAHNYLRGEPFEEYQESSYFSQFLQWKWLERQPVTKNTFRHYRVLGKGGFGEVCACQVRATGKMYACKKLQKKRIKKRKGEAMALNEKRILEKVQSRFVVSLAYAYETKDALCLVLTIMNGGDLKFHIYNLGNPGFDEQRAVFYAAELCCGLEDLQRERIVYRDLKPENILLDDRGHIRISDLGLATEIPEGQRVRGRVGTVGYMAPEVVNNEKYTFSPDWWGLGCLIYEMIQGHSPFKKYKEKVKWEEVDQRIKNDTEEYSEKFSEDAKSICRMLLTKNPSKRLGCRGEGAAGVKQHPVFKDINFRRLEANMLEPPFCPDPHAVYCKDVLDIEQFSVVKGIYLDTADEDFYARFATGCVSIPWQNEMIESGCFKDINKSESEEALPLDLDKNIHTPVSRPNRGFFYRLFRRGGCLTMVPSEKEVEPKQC

Study 1
Cell line: normal organoid sample H
Method: CellTiter-Glo
Host: human
Medium: normal-adjacent epithelium
Tested at: 1 µM
Reference: DMSO
Endpoint: viability
O=C1CCc2cc(Nc3cc(OC4CCOCC4)c([N+](=O)[O-])cc3Cl)ccc2N1: 110%
Cn1nc(C(F)(F)F)cc1-c1cnc(N2CCc3cc(S(=O)(=O)Nc4c(F)cc(Cl)cc4F)cc(N4CCCC4=O)c32)nc1: 97.8%
CNCc1ccccc1-c1csc([C@@H](C)Nc2nc(C)nc3cc(OC)c(OC)cc23)c1: 64.5%
CN1CCN(C(=O)C(C)(C)c2ccc(C(=O)Nc3cn4cc(-c5cc(C(C)(C)C)cc(C(C)(C)C)c5)ccc4n3)cc2)CC1: 69.4%
Cc1c(Oc2ccc(F)cc2)c(OC(C)C)nn1-c1ccc(C2CC2)cn1: 107% and 120%
CC1=C(C#N)C(c2ccc3c(c2)c(NC(=O)c2ccccc2C)nn3C)C(C#N)=C(C)N1: 91.2%
CCOCCn1cc(C(=O)Nc2ccc(-n3nc(-c4cccnc4)cc3C(F)(F)F)cn2)ccc1=O: 88.8%
Cc1nc(C2CCN(C(=O)c3ccc(OC(F)(F)F)cc3N)CC2)c2ncc(N3CCN(C)CC3)cc2n1: 123% and 121%

Study 2
Host: mouse
Medium: microsomes or S9
Tested at: 2 µM
Time: 0.5 h
Endpoint: remaining compound
Nc1cccc(-c2c3c(=O)[nH][nH]c(=O)c3c3n2CCC3)c1: > 99%
CCN1C=CC(=C(C=C2C=CC(=O)C=C2)CS(=O)(=O)O)C=C1: 84.8%
Cc1c(C)n(CCCN(C)C)c2ncn(CC(C)C)c(=N)c12: 94.8%
O=C(c1scc2c1OCCO2)N1CCCC(Cn2ccnc2)C1 (stereo not drawn): 63.2%
CCC(=O)N(CCO)Cc1cc2cc(C)cc(C)c2[nH]c1=O: 96.5%
NC1(c2ccccc2)C(=O)Nc2ccccc2C1=O (stereo not drawn): 83.8%
CN(Cc1cc(Br)cn1C)c1ncccn1: > 100%

Study 3
SMILES: CC(=O)c1ccc(N2CCOCC2)cc1O
Observed: enzyme activity
Action: inhibitor
Tested at: 0.5 µM
Reference: control
Endpoint: remaining activity
DDR2 (Homo sapiens, UniProt Q16832): 104%
MAPK11 (Homo sapiens, UniProt Q15759): 99.8%
RPS6KA4 (Homo sapiens, UniProt O75676): 103%
MARK4 (Homo sapiens, UniProt Q96L34): 99.4%
MET (Homo sapiens, UniProt P08581): 122%
CLK3 (Homo sapiens, UniProt P49761): 101%
CAMK4 (Homo sapiens, UniProt Q16566): 93%
GRK4 (Homo sapiens, UniProt P32298): 106%
MAPK14 (Homo sapiens, UniProt Q16539): 97.1%
CLK4 (Homo sapiens, UniProt Q9HAZ1): 111%
CDC42BPB (Homo sapiens, UniProt Q9Y5S2): 87.2%
TXK (Homo sapiens, UniProt P42681): 103%
MAP2K1 (Homo sapiens, UniProt Q02750): 95.2%

Study 4
Target: Beta-1 adrenergic receptor (ADRB1, Homo sapiens, UniProt P08588)
Sequence of UniProt P08588 (whole entry, looked up): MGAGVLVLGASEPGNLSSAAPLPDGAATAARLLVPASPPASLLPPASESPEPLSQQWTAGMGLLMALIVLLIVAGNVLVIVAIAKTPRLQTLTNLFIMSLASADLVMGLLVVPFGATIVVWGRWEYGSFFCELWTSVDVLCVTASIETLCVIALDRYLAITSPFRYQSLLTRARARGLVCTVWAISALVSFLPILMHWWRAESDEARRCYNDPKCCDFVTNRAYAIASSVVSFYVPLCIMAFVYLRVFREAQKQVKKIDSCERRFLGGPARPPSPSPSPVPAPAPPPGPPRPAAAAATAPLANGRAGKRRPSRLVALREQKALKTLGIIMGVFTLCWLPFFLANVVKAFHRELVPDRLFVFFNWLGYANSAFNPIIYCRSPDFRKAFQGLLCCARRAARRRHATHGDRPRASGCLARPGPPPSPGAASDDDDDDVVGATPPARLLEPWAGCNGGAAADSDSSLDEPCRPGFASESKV
Action: agonist
Endpoint: EC50
O=C(Nc1ccc([C@@H](O)[C@H]2COCC(=O)N2CCCc2ccccc2)cc1)c1cnccn1: ≥ 100 µM
COc1cc(CNCCOc2ccccc2)ccc1OCC(O)CN1CCOCC1 (stereo not drawn): ≥ 100 µM
O=C(NCC(O)CO)c1ccc(OC2CCN(CCc3ccccc3)CC2)cc1 (stereo not drawn): ≥ 100 µM
O=C1COc2ccc(N3CCOCC3)nc2CN1Cc1ccc(F)cc1: ≥ 100 µM
Cc1[nH]c2ccc(C(=O)N3CCN(c4ccccc4Cl)CC3)cc2c1C: ≥ 100 µM

Some of these lines once more (study 3):
MAPK14 (Homo sapiens, UniProt Q16539): 97.1%
CAMK4 (Homo sapiens, UniProt Q16566): 93%
MAPK11 (Homo sapiens, UniProt Q15759): 99.8%
MAP2K1 (Homo sapiens, UniProt Q02750): 95.2%
CDC42BPB (Homo sapiens, UniProt Q9Y5S2): 87.2%
